Results of several laboratories.
Protocols differ between the studies behind these lines. ± gives the spread as reported.

| SMILES | test | system | setting | endpoint | result |
| --- | --- | --- | --- | --- | --- |
| N=C(N)NCCC[C@@H]1NC(=O)[C@H](CCCCNC(=O)c2ccc(CNC34CNCCNCC(N)(CNCCNC3)CNCCNC4)cc2)NC(=O)[C@@H](Cc2ccc(O)cc2)NC(=O)[C@H](CC(=O)O)NC(=O)CNC1=O [copper-64 labelled] | ex vivo biodistribution | male athymic nude mouse, PC-3 tumour, heart | 7.4 MBq, 48 h | tissue uptake | 0.96 ± 0.11 %ID/g |
| CC1(C)C(=CC=C2CCCC(C=CC3=[N+](CCCCS(=O)(=O)[O-])c4ccc(S(=O)(=O)O)cc4C3(C)C)=C2Oc2ccc(S(=O)(=O)O)cc2)N(CCCCCC(=O)NCCCC[C@H](NC(=O)[C@H](CO)NC(=O)CNC(=O)CNC(=O)CNC(=O)[C@H](Cc2ccccc2)NC(=O)[C@H](CCCNC(=N)N)NC(=O)[C@@H]2CCCN2C(=O)[C@H](CC(N)=O)NC(=O)[C@@H]2CCCN2C(=O)[C@H](CO)NC(=O)[C@@H](N)CCCCN)C(N)=O)c2ccc(S(=O)(=O)O)cc21 |  | serum | 37 °C | half-life | ~282 min |
| CCCCCCCCCC(=O)N[C@@H](Cc1c[nH]c2ccccc12)C(=O)N[C@H](CC(N)=O)C(=O)N[C@@H](CC(=O)O)C(=O)N[C@@H]1C(=O)NCC(=O)N[C@@H](CCCNC(=O)CCC(=O)N2Cc3ccccc3-c3c(nnn3CCC[C@H](NC(=O)CCCCC[N+]3=C(C=CC4=CC(=CC=C5N(C)c6ccccc6C5(C)C)CCC4)C(C)(C)c4ccccc43)C(=O)NCCCCNC(=O)CCC(=O)N3Cc4ccccc4C#Cc4ccccc43)-c3ccccc32)C(=O)N[C@@H](CC(=O)O)C(=O)N[C@H](C)C(=O)N[C@@H](CC(=O)O)C(=O)NCC(=O)N[C@H](CO)C(=O)N[C@@H]([C@H](C)CC(=O)O)C(=O)N[C@@H](CC(=O)c2ccccc2N)C(=O)O[C@@H]1C |  | human plasma | 1 µM, up to 240 min, pH 7.4, 37 °C | half-life | > 240 min |
| N=C(N)NCCC[C@H](NC(=O)[C@@H](Cc1ccccc1)NC(=O)[C@H](Cc1c[nH]cn1)NC(=O)CCCc1ccccc1)C(=O)N[C@@H](Cc1c[nH]c2ccccc12)C(=O)NCC(=O)N[C@@H](CCCCNC(=O)CCCCCNC(=O)CN1CCN(CC(=O)O)CCN(CC(=O)O)CCN(CC(=O)O)CC1)C(N)=O [actinium-225 labelled] | five-compartment model fit | SCID mice, A-375 and A-375/MC1R xenografts |  | normal tissue uptake rate constant (kni) | 0.013 h⁻¹ |
| O=C(O)C[C@H](NC(=O)[C@H](CC(=O)O)NC(=O)[C@H](CC(=O)O)NC(=O)[C@H](CC(=O)O)NC(=O)[C@H](CC(=O)O)NC(=O)[C@H](CC(=O)O)NC(=O)[C@H](CC(=O)O)NC(=O)[C@H](CC(=O)O)NC(=O)[C@H](CC(=O)O)NC(=O)[C@H](CC(=O)O)NC(=O)[C@H](CC(=O)O)NC(=O)[C@H](CCCCNC(=O)c1ccc(C(=O)NCCOCCOB2BBBBBB3BBBB3B2)cc1)NC(=O)CN1CCN(CC(=O)O)CCN(CC(=O)O)CCN(CC(=O)O)CC1)C(=O)O [gallium-67 labelled] | gamma counting | ddY mouse, male, 6 weeks old, small intestine | intravenous, 37 kBq, 10 min | tissue uptake | 0.59 %ID/g |
| Cc1ccccc1NC(=O)Nc1ccc(CC(=O)N[C@@H](CCCCNC(=O)/C=C/c2cccnc2)C(=O)N[C@@H](CCCC(=O)O)C(=O)NC2(C(=O)NCCOCCOCCOCCOCC(=O)N[C@@H](CCCCNC(=S)Nc3ccc(CCCN(CCN4CCN(CP(=O)(O)O)CCN(CP(=O)(O)O)CC4)CC(=O)O)cc3)C(N)=O)CCCCC2)cc1 [gallium-68 labelled] |  | ZnCl2 solution | 2 h, 37 °C, added: ZnCl2 1 mM | intact tracer | > 95% |
| CC[C@H](C)[C@H](NC(=O)[C@H](Cc1ccccc1)NC(=O)[C@H](CCC(=O)O)NC(=O)[C@H](CCCNC(=N)N)NC(=O)[C@H](C)NC(=O)[C@H](C)NC(=O)[C@H](CCC(N)=O)NC(=O)[C@H](CCC(=O)O)NC(=O)[C@H](CCC(=O)O)NC(=O)[C@H](CC(C)C)NC(=O)[C@H](Cc1ccc(O)cc1)NC(=O)[C@H](CO)NC(=O)[C@H](CO)NC(=O)[C@@H](NC(=O)[C@H](CC(=O)O)NC(=O)[C@H](CO)NC(=O)[C@@H](NC(=O)[C@H](Cc1ccccc1)NC(=O)[C@@H](NC(=O)CNC(=O)[C@H](CCC(=O)O)NC(=O)[C@H](C)NC(=O)CCc1c[nH]cn1)[C@@H](C)O)[C@@H](C)O)C(C)C)C(=O)N[C@@H](C)C(=O)N[C@@H](Cc1c[nH]c2ccccc12)C(=O)N[C@@H](CC(C)C)C(=O)N[C@H](C(=O)N[C@@H](CCCNC(=N)N)C(=O)NCC(=O)N[C@@H](CCCNC(=N)N)C(=O)N[C@@H](CCCCNC(=O)COCCOCCNC(=O)COCCOCCNC(=O)CC[C@H](NC(=O)CCCCCCCCCCCCCCCCC(=O)O)C(=O)O)C(=O)NCC(=O)NCC(=O)N[C@@H](CO)C(=O)N[C@@H](CCCCNc1c(NCCCCCN(O)C(=O)CCC(=O)NCCCCCN(O)C(=O)CCC(=O)NCCCCCN(O)C(C)=O)c(=O)c1=O)C(=O)O)C(C)C [zirconium-89 labelled] |  | rat, brain | iv, 3 nmol/kg, 72 h, ex vivo | tissue uptake | 0.01 %ID/g |
| C[C@@H](O)[C@@H](CO)NC(=O)[C@@H](CCCNC(=N)N)NC(=O)[C@@H]1CCCN1C(=O)[C@@H]1CSSC[C@H](NC(=O)[C@H](Cc2ccccc2)NC(=O)CN2CCN(CC(=O)O)CCN(CC(=O)O)CCN(CC(=O)O)CC2)C(=O)N[C@@H](Cc2ccc(O)cc2)C(=O)N[C@@H](Cc2ccccc2)C(=O)N[C@@H](CCC(N)=O)C(=O)N[C@@H](CC(N)=O)C(=O)N1 [gallium-68 labelled] |  | Wistar rat, pancreas | intravenous, 8 MBq, 30 min, group mean | tissue uptake | 0.32 %ID/g |

Repeated from above:
| SMILES | test | system | setting | endpoint | result |
| --- | --- | --- | --- | --- | --- |
| O=C(O)C[C@H](NC(=O)[C@H](CC(=O)O)NC(=O)[C@H](CC(=O)O)NC(=O)[C@H](CC(=O)O)NC(=O)[C@H](CC(=O)O)NC(=O)[C@H](CC(=O)O)NC(=O)[C@H](CC(=O)O)NC(=O)[C@H](CC(=O)O)NC(=O)[C@H](CC(=O)O)NC(=O)[C@H](CC(=O)O)NC(=O)[C@H](CC(=O)O)NC(=O)[C@H](CCCCNC(=O)c1ccc(C(=O)NCCOCCOB2BBBBBB3BBBB3B2)cc1)NC(=O)CN1CCN(CC(=O)O)CCN(CC(=O)O)CCN(CC(=O)O)CC1)C(=O)O [gallium-67 labelled] | gamma counting | ddY mouse, male, 6 weeks old, small intestine | intravenous, 37 kBq, 10 min | tissue uptake | 0.59 %ID/g |
